Published values from different studies.
Protocols differ between the studies behind these lines. “And” joins repeats or separate records; there may be more than shown.

SMILES	assay	system	setting	half-life
CN(C(=O)c1ccnc(N2Cc3cn(Cc4ccc(F)cc4)nc3C2)n1)C1CCCCC1	metabolic stability	human, liver microsomes	–	8 min
CC[C@H](C)[C@H](NC(=O)[C@H](Cc1ccccc1)NC(=O)[C@H](CCC(=O)O)NC(=O)[C@H](CCCCN)NC(=O)[C@H](C)NC(=O)[C@H](C)NC(=O)[C@H](CCC(N)=O)NC(=O)CNC(=O)[C@H](CCC(=O)O)NC(=O)[C@H](CC(C)C)NC(=O)[C@H](Cc1ccc(O)cc1)NC(=O)[C@H](CO)NC(=O)[C@H](CO)NC(=O)[C@@H](NC(=O)[C@H](CC(=O)O)NC(=O)[C@H](CO)NC(=O)[C@@H](NC(=O)[C@H](Cc1ccccc1)NC(=O)[C@@H](NC(=O)CNC(=O)[C@H](CCC(=O)O)NC(=O)[C@H](C)NC(=O)[C@@H](N)Cc1c[nH]cn1)[C@@H](C)O)[C@@H](C)O)C(C)C)C(=O)N[C@@H](C)C(=O)N[C@@H](Cc1c[nH]c2ccccc12)C(=O)N[C@@H](CC(C)C)C(=O)N[C@H](C(=O)N[C@@H](CCCNC(=N)N)C(=O)NCC(=O)N[C@@H](CCCNC(=N)N)C(=O)NCC(=O)O)C(C)C	–	male ICR mice, plasma	intravenous bolus, 1 mg/kg	4.2 min and 5.4 min
Cc1c(Cc2cccc(OC(C)(C)C(=O)O)c2)c2ccc(C(=O)N[C@@H](C)c3cccc(C(C)(C)C)c3)cc2n1CC1CCC1	metabolic stability	human, liver microsomes	–	56 min
CN(C)C(=O)c1cccc(N2Cc3cn(Cc4cccc(C(F)(F)F)c4)nc3C2)c1	metabolic stability	human, liver microsomes	–	49 min
COC1CN([C@H]2CC[C@H]([C@@]3(C)Oc4c(Cl)cc(C(=O)NCc5c(SC)cc(C)[nH]c5=O)c(C)c4O3)CC2)C1	–	female CB17 SCID mice, HT-1376 xenograft, plasma	75 mg/kg, day 1	171 min
Cc1c(Cc2ccc(Cl)c(OC(C)C(=O)O)c2)c2ccc(C(=O)NC(C)c3ccc(C(C)(C)C)cc3)cc2n1CC1CCC1 (stereo not shown)	metabolic stability	human, liver microsomes	–	> 60 min
C/C(N)=N/C(=N\S(=O)(=O)c1ccc(C(F)(F)F)cc1)N1C[C@H](c2ccccc2)C(c2ccc(Cl)cc2)=N1	–	female cynomolgus monkey, plasma	intravenous, 2 mg/kg	900 min
C=C(NC(=O)c1csc(-c2nc3c(cc2O)-c2nc(cs2)C(=O)NC(C(C)O)C(=O)NC(=C(C)OC)c2nc(cs2)C(=O)NC2c4nc(cs4)C(=O)NC(COC(=O)c4c5c6c(cccc6n4O)COC(=O)C(OC4CC(C)(O)C(N(C)C)C(C)O4)C2OC5)c2nc-3cs2)n1)C(N)=O (stereo not shown)	–	female cynomolgus monkey, plasma	intravenous, 1 mg/kg, single dose, infusion	221 min
CN(C)C(=O)c1cccc(N2Cc3cn(Cc4ccc(C#N)cc4)nc3C2)c1	metabolic stability	human, liver microsomes	–	118 min
CC(C)Cn1cc(Cc2cccc(OC(C)(C)C(=O)O)c2)c2ccc(C(=O)N[C@@H](C)c3cc(F)cc(C(C)(C)C)c3)cc21	metabolic stability	human, liver microsomes	–	> 60 min
O=C(c1cccc(N2Cc3cn(Cc4ccc(F)cc4)nc3C2)c1)N1CCNCC1	metabolic stability	human, liver microsomes	–	226 min
COc1cc2ncnc(Oc3ccc(Nc4nccc5[nH]cc(-c6ccc(F)cc6)c(=O)c45)cc3F)c2cc1OC	–	male cynomolgus monkey, plasma	intravenous, 1.5 mg/kg	784 min
Cc1c(Cc2cccc(OC(C)(C)C(=O)O)c2)c2ccc(C(=O)N[C@@H](C)c3cc(C(C)(C)C)ccc3F)cc2n1CC(C)C	metabolic stability	human, liver microsomes	–	53 min

Repeated from above:
SMILES	assay	system	setting	half-life
CC(C)Cn1cc(Cc2cccc(OC(C)(C)C(=O)O)c2)c2ccc(C(=O)N[C@@H](C)c3cc(F)cc(C(C)(C)C)c3)cc21	metabolic stability	human, liver microsomes	–	> 60 min
C=C(NC(=O)c1csc(-c2nc3c(cc2O)-c2nc(cs2)C(=O)NC(C(C)O)C(=O)NC(=C(C)OC)c2nc(cs2)C(=O)NC2c4nc(cs4)C(=O)NC(COC(=O)c4c5c6c(cccc6n4O)COC(=O)C(OC4CC(C)(O)C(N(C)C)C(C)O4)C2OC5)c2nc-3cs2)n1)C(N)=O (stereo not shown)	–	female cynomolgus monkey, plasma	intravenous, 1 mg/kg, single dose, infusion	221 min
